{"data": "Measurements gathered from unrelated publications", "medium": "plasma", "note": "Compare with care: the assays were run in different laboratories."}
{"SMILES": "O=C(O)c1cccc(S(=O)(=O)Nc2ccccc2)c1", "system": "human, mild liver dysfunction", "setting": "intravenous, 400 mg/m^2 belinostat, cycle 1 day -7, geometric mean", "scale": "baseline: metabolite over belinostat", "endpoint": "Cmax metabolic ratio", "value": 0.087}
{"SMILES": "CC(=O)N[C@H](CC(=O)O)C(=O)N[C@H](Cc1c[nH]c2ccccc12)C(=O)N[C@H](Cc1ccccc1)C(=O)N[C@H](CCCCN)C(=O)N[C@H](C)C(=O)N[C@H](Cc1ccccc1)C(=O)N[C@H](Cc1ccc(O)cc1)C(=O)N[C@H](CC(=O)O)C(=O)N[C@H](CCCCN)C(=O)N[C@@H](C(=O)N[C@H](C)C(=O)N[C@H](CCC(=O)O)C(=O)N[C@H](CCCCN)C(=O)N[C@H](Cc1ccccc1)C(=O)N[C@H](CCCCN)C(=O)N[C@H](CCC(=O)O)C(=O)N[C@H](C)C(=O)N[C@H](Cc1ccccc1)C(N)=O)C(C)C", "system": "human, statin-treated high-risk CHD, both sexes", "setting": "oral, 500 mg daily, day 13, 0 to 8 h, mean, undetectable set to 0, outlier woman excluded", "endpoint": "Cmax", "value": "37.1 ng/mL"}
{"SMILES": "CCc1c2c(nc3ccc(O)cc13)-c1cc3c(c(=O)n1C2)COC(=O)[C@]3(O)CC", "system": "human patients", "setting": "intravenous, 100 mg/m^2 of parent drug", "endpoint": "Cmax", "value": "182 ng/mL"}
{"SMILES": "CONC(=O)/C=C/c1cccc(S(=O)(=O)Nc2ccccc2)c1", "system": "human, normal liver function", "setting": "intravenous, 400 mg/m^2 belinostat, cycle 1 day -7, geometric mean", "scale": "baseline: metabolite over belinostat", "endpoint": "Cmax metabolic ratio", "value": 0.0948}
{"SMILES": "Cn1c(=O)oc2ccc(-c3ccc(CC(C#N)NC(=O)C4CNCCCO4)c(F)c3)cc21 (stereo not shown)", "system": "human", "setting": "10 mg once daily, day 28, geometric mean", "endpoint": "Cmax", "value": "58.6 ng/mL"}
{"SMILES": "CN1CCC[C@]1(C)/C=C/S(=O)(=O)NC(=O)Nc1c2c(cc3c1CCC3)CCC2", "system": "human", "setting": "oral, 100 mg twice daily, day 14, multiple ascending dose", "endpoint": "Cmax after second dose", "value": "16100 ng/mL"}
{"SMILES": "NC(=O)/C=C/c1cccc(S(=O)(=O)Nc2ccccc2)c1", "system": "human, moderate liver dysfunction", "setting": "intravenous, 400 mg/m^2 belinostat, cycle 1 day -7, geometric mean", "scale": "baseline: metabolite over belinostat", "endpoint": "Cmax metabolic ratio", "value": 0.0768}
{"SMILES": "O=C(CCc1ccc(CNC(C(=O)O)C2CCCCC2)cn1)NO (stereo not shown)", "system": "human", "setting": "oral, 40 mg once daily, day 7, geometric mean", "endpoint": "Cmax", "value": "181 ng/mL"}
{"SMILES": "CCCCCCCCCCCCCCCC(=O)N[C@@H](CCC(=O)NCCCC[C@H](NC(=O)[C@H](C)NC(=O)[C@H](C)NC(=O)[C@H](CCC(N)=O)NC(=O)CNC(=O)[C@H](CCC(=O)O)NC(=O)[C@H](CC(C)C)NC(=O)[C@H](Cc1ccc(O)cc1)NC(=O)[C@H](CO)NC(=O)[C@H](CO)NC(=O)[C@@H](NC(=O)[C@H](CC(=O)O)NC(=O)[C@H](CO)NC(=O)[C@@H](NC(=O)[C@H](Cc1ccccc1)NC(=O)[C@@H](NC(=O)CNC(=O)[C@H](CCC(=O)O)NC(=O)[C@H](C)NC(=O)[C@@H](N)Cc1cnc[nH]1)[C@@H](C)O)[C@@H](C)O)C(C)C)C(=O)N[C@@H](CCC(=O)O)C(=O)N[C@@H](Cc1ccccc1)C(=O)N[C@H](C(=O)N[C@@H](C)C(=O)N[C@@H](Cc1c[nH]c2ccccc12)C(=O)N[C@@H](CC(C)C)C(=O)N[C@H](C(=O)N[C@@H](CCCNC(=N)N)C(=O)NCC(=O)N[C@@H](CCCNC(=N)N)C(=O)NCC(=O)O)C(C)C)[C@@H](C)CC)C(=O)O", "system": "healthy humans", "scale": "baseline: compound over Victoza", "endpoint": "Cmax ratio", "value": "112%"}
{"SMILES": "CCc1cc(Nc2nc(-c3ccc(-n4cnc(C)c4)c(F)c3)cs2)c(C)cc1C", "system": "human, both sexes", "setting": "oral, 400 mg, day 1, multiple dose, geometric mean", "endpoint": "Cmax", "value": "1610 ng/mL"}
{"note": "Repeated from above:"}
{"SMILES": "CONC(=O)/C=C/c1cccc(S(=O)(=O)Nc2ccccc2)c1", "system": "human, normal liver function", "setting": "intravenous, 400 mg/m^2 belinostat, cycle 1 day -7, geometric mean", "scale": "baseline: metabolite over belinostat", "endpoint": "Cmax metabolic ratio", "value": 0.0948}
